{"data": "Measurements from different studies", "note": "Each line is one published result; not all experiments were run side by side. “And” joins repeats or separate records; there may be more than shown. ± gives the spread as reported."}
{"Compound": "CC(C)C[C@H](NC(=O)[C@@H](CCCCNC(=O)[C@@H](Cc1ccccc1)NC(=O)CCCCCCCNC(=O)CN1CCN(CC(=O)O)CCN(CC(=O)O)CCN(CC(=O)O)CC1)NC(=O)[C@H](Cc1ccc(O)cc1)NC(=O)[C@H](CO)NC(=O)[C@H](Cc1c[nH]c2ccccc12)NC(=O)[C@H](Cc1c[nH]cn1)NC(=O)[C@@H]1CCC(=O)N1)C(=O)N[C@@H](CCCNC(=N)N)C(=O)N1CCC[C@H]1C(=O)NCC(N)=O [indium-111 labelled]", "test": "biodistribution", "system": "male athymic nude mice, DU-145 prostate cancer xenograft, liver", "conditions": "intravenous, 0.037 MBq, 2 h post-injection", "tissue uptake": "0.5 ± 0.07 %ID/g"}
{"Compound": "CCCC[C@H](NC(=O)COCCOCCNC(=O)CN1CCN(CC(=O)O)CCN(CC(=O)O)CC1)C(=O)N[C@H]1CC(=O)NCCCC[C@@H](C(N)=O)NC(=O)[C@H](Cc2c[nH]c3ccccc23)NC(=O)[C@H](CCCNC(=N)N)NC(=O)[C@@H](Cc2ccccc2)NC(=O)[C@H](Cc2c[nH]cn2)NC1=O [fluorine-18 labelled]", "system": "C57 mice B16-F10 melanoma, spleen", "conditions": "intravenous, 0.37 MBq, 2 h", "tissue uptake": "0.02 ± 0.05 %ID/g"}
{"Compound": "COc1ccc2c(c1)C(C)(C)C(/C=C/C1=C(Oc3ccc(C(=O)NCCCCOc4cc(CN(Cc5ccccn5)Cc5ccccn5)cc(CN(Cc5ccccn5)Cc5ccccn5)c4)cc3)C(=C/C=C3/N(CCCCS(=O)(=O)[O-])c4ccc(OC)cc4C3(C)C)CCC1)=[N+]2CCCCS(=O)(=O)[O-].O=[N+]([O-])[O-].O=[N+]([O-])[O-].[99Tc+].[C-]#[O+].[C-]#[O+].[C-]#[O+].[Zn+2]", "system": "BALB/c mice, S. aureus myositis, infected muscle", "conditions": "12 h post-injection", "tissue uptake": "1.28 %ID/g and 1.13 %ID/g and 2.48 %ID/g and 1.84 %ID/g"}
{"Compound": "Cc1cc(C)n(CCN(CCN)CCCCCCNC(=O)[C@@H](N)Cc2c[nH]c3ccccc23)n1.[99Tc+].[C-]#[O+].[C-]#[O+].[C-]#[O+]", "system": "BALB/c nude mice, A549 xenograft, kidney", "conditions": "intravenous, 4 h", "tissue uptake": "7.4 ± 1.15 %IA/g"}
{"Compound": "CCCC[C@H](NC(=O)CCCCCCCNC(=O)CN1CCN(CC(=O)O)CCN(CC(=O)O)CC1)C(=O)N[C@H]1CC(=O)NCCCC[C@@H](C(N)=O)NC(=O)[C@H](Cc2c[nH]c3ccccc23)NC(=O)[C@H](CCCNC(=N)N)NC(=O)[C@@H](Cc2ccccc2)NC(=O)[C@H](Cc2c[nH]cn2)NC1=O [fluorine-18 labelled]", "system": "C57 mice B16-F10 melanoma, lung", "conditions": "intravenous, 0.37 MBq, 1 h", "tissue uptake": "1.67 ± 0.48 %ID/g"}
{"Compound": "COc1ccc(Nc2nc(Nc3ccc(OCCOCCOCC[18F])cc3)ncc2Br)cc1", "system": "ICR mice, S180 tumour, stomach", "conditions": "intravenous, 370 kBq, 120 min", "tissue uptake": "1.52 ± 0.19 %ID"}
{"Compound": "O=C(O)CCCOc1ccc([18F])cc1-c1cc(-c2ccccc2C(F)(F)F)n(-c2ccccc2)n1", "system": "mice, bladder and urine", "conditions": "intravenous, 5 min", "tissue uptake": "0.07 ± 0.04 %ID/g"}
{"Compound": "O=C([O-])CN1CCN(CC(=O)[O-])CCN(CC(=O)NC[C@H]2CC[C@H](C(=O)N[C@H](Cc3cnc4ccccc4c3)C(=O)NCCCC[C@H](NC(=O)N[C@@H](CCC(=O)O)C(=O)O)C(=O)O)CC2)CCN(CC(=O)[O-])CC1.[64Cu+2]", "test": "ex vivo gamma counting", "system": "22Rv1 tumour-bearing mice, blood", "conditions": "intravenous, 0.74 MBq, 6 h post-injection", "tissue uptake": "2.51 %ID/g"}
{"Compound": "N#C[C@@H]1CCCN1C(=O)CNC(=O)c1ccnc2ccc(OCCCN3CCN(C(=O)CCc4ccc5c(c4)CN4CCN(Cc6cc(CCC(=O)O)ccc6O)CC(=O)[O][Al-]([18F])([O]C(=O)C4)[O]5)CC3)cc12 (stereo partly drawn)", "system": "BALB/c nude mice, U-87 MG xenograft, heart", "conditions": "1 h", "tissue uptake": "0.93 ± 0.21 %ID/g"}
{"Compound": "O=C(NCC1OC2CCC=CCCC2O1)c1ccc(COCCOCCOCC[18F])cc1 (stereo not drawn)", "system": "healthy female BALB/c nude mice, large intestine", "conditions": "intravenous, 7.4 MBq per mouse, 120 min", "tissue uptake": "12.6 ± 0.4 %ID/g"}
{"Compound": "CCCC[C@H](NC(=O)CNC(=O)CNC(=O)[C@H](CCCCNC(=O)[C@H](CC(=O)O)NC(=O)C(C)c1ccc(CC(C)C)cc1)NC(=O)CN1CCN(CC(=O)O)CCN(CC(=O)O)CCN(CC(=O)O)CC1)C(=O)N[C@H]1CC(=O)NCCCC[C@@H](C(N)=O)NC(=O)[C@H](Cc2c[nH]c3ccccc23)NC(=O)[C@H](CCCNC(=N)N)NC(=O)[C@@H](Cc2ccccc2)NC(=O)[C@H](Cc2c[nH]cn2)NC1=O (stereo partly drawn) [lutetium-177 labelled]", "system": "C57 mice, tumour-bearing, spleen", "conditions": "intravenous, 0.037 MBq, 24 h", "tissue uptake": "0.31 ± 0.03 %ID/g"}
{"Compound": "COc1ccc(Nc2nc(Nc3ccc(OCCOCC[18F])cc3)ncc2Br)cc1", "system": "ICR mice, S180 tumour-bearing, spleen", "conditions": "intravenous, 370 kBq, 120 min", "tissue uptake": "1.61 ± 0.21 %ID/g"}
{"Compound": "Cc1cc(C)n(CCN(CCN)CCCCCCNC(=O)[C@@H](N)Cc2c[nH]cn2)n1.[99Tc+].[C-]#[O+].[C-]#[O+].[C-]#[O+]", "system": "BALB/c nude mice A549 xenograft, tumor", "conditions": "intravenous, 4 h", "tissue uptake": "0.91 %ID/g"}
{"Compound": "O=C(NCC1OC2CCC=CCCC2O1)c1ccc([18F])nc1 (stereo not drawn)", "system": "healthy female BALB/c nude mice, large intestine", "conditions": "intravenous, 7.4 MBq per mouse, 60 min", "tissue uptake": "5.6 ± 2 %ID/g"}
{"Compound": "CCCC[C@H](NC(=O)CNC(=O)CNC(=O)[C@H](CCCCNC(=O)[C@H](CC(N)=O)NC(=O)C(C)c1ccc(CC(C)C)cc1)NC(=O)CN1CCN(CC(=O)O)CCN(CC(=O)O)CCN(CC(=O)O)CC1)C(=O)N[C@H]1CC(=O)NCCCC[C@@H](C(N)=O)NC(=O)[C@H](Cc2c[nH]c3ccccc23)NC(=O)[C@H](CCCNC(=N)N)NC(=O)[C@@H](Cc2ccccc2)NC(=O)[C@H](Cc2c[nH]cn2)NC1=O (stereo partly drawn) [lutetium-177 labelled]", "system": "C57 mice, tumour-bearing, muscle", "conditions": "2 h", "tissue uptake": "0.51 ± 0.12 %ID/g"}
{"note": "Some of these lines once more:"}
{"Compound": "CCCC[C@H](NC(=O)CNC(=O)CNC(=O)[C@H](CCCCNC(=O)[C@H](CC(N)=O)NC(=O)C(C)c1ccc(CC(C)C)cc1)NC(=O)CN1CCN(CC(=O)O)CCN(CC(=O)O)CCN(CC(=O)O)CC1)C(=O)N[C@H]1CC(=O)NCCCC[C@@H](C(N)=O)NC(=O)[C@H](Cc2c[nH]c3ccccc23)NC(=O)[C@H](CCCNC(=N)N)NC(=O)[C@@H](Cc2ccccc2)NC(=O)[C@H](Cc2c[nH]cn2)NC1=O (stereo partly drawn) [lutetium-177 labelled]", "system": "C57 mice, tumour-bearing, muscle", "conditions": "2 h", "tissue uptake": "0.51 ± 0.12 %ID/g"}
{"Compound": "N#C[C@@H]1CCCN1C(=O)CNC(=O)c1ccnc2ccc(OCCCN3CCN(C(=O)CCc4ccc5c(c4)CN4CCN(Cc6cc(CCC(=O)O)ccc6O)CC(=O)[O][Al-]([18F])([O]C(=O)C4)[O]5)CC3)cc12 (stereo partly drawn)", "system": "BALB/c nude mice, U-87 MG xenograft, heart", "conditions": "1 h", "tissue uptake": "0.93 ± 0.21 %ID/g"}
